Measurements from different studies.
Parts stem from different laboratories: compare values within a part only.

Series 1
Target: RNA binding protein fox-1 homolog 2, RRM domain, GST-SBP tag (RBFOX2, Homo sapiens, UniProt O43251-10, residues 100-194)
Method: RNA Bind-n-Seq
Form: RNA
Medium: in vitro
Concentration: 365 nM
Notes: natural RNA segment, single round, ends assumed
Reference: no-protein control
Direction: higher = stronger binding
Residues (chain): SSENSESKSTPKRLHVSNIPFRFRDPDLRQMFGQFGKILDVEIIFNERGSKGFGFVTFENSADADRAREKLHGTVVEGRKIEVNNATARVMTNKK
`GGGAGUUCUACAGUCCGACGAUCAACUGUCACCCAUAUGGUCCCUGGGCCACCGGGCAGCCUGGGGCGGUGUGUGUGCCAUGUCACAGCAUGGCCUCUCGGCCUUGGGAAGGAAGGCAGUGCCUGCUCUGCUGUGGAAUUCUCGGGUGCCAA` — result for “RBNS enrichment (R)”: 0.607.
`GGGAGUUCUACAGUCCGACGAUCCCAGGCAUGUGGUGAGAAACUGCCUUAAUGUGUCUCCUCUGUUCUUGUCAACAGGAGGCUCAAGAUGUGAGAGGUGUGAGUCAGACGCCCGAGGAACUUACAGGAGGAGCUGGAAUUCUCGGGUGCCAA` — result for “RBNS enrichment (R)”: 2.36.
`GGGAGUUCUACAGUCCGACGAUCCCCAGAGGUCAUAGGUGAUGGUCCUACUGCCCAACAGUUGCCUUUUGAAUCCUUAUGUUGAUGAUGGUGUCUUUCUACACACUCACUGCAACUACUCAGGAAUUAUAAAGUGGAAUUCUCGGGUGCCAA`: “RBNS enrichment (R)” 0.204.
`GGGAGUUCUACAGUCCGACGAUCAACAUCUUUAAGUGCCAUGAGUAAUUUUUCCUGACUCUGUUUCAUAGCUUUGUAAGAAUUCUGUGUCUUUAUAAGACACAGAAGCAAGGCAGGUGCUACAUAAAAAAGUAUGGAAUUCUCGGGUGCCAA` — result for “RBNS enrichment (R)”: 0.345.
Under “RBNS enrichment (R)”, `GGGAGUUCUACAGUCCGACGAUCCAGACCACUGAACAAGUACACGUAUAGGCCUCAAGUAUGCUAUUCCCGUGUGGCUUUAUCCUGUCCCUGCUGUUGCGAGGAAGCUGUGAGGGUACCUUCAGAUGAGAUACUGGAAUUCUCGGGUGCCAA` is recorded as 0.742.
For `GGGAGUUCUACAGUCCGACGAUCUCAAGAGAUUUGUCCUCCUUGGGGGACCACUGGAUCAUUCCAGAUUUCUUGUGAUUUUUCUAUUGUGUAAUUCUUGGUGGGCUCUGUAGUUUAAUAAUAAGAAAAAGGCCUGGAAUUCUCGGGUGCCAA`, “RBNS enrichment (R)” read 0.718.
Under “RBNS enrichment (R)”, `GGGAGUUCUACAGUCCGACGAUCGCACAAGAUAGUAUGUGCCAAUAUAGCCAAGAUAAUAUGUGAAAUGGUCUUUCUAAAUGAUUAAAGAAAUCAUUUGCGUUGGUUCUUGUUUUUUGUGUUUUCCCUCUAUUUGGAAUUCUCGGGUGCCAA` is recorded as 0.582.
`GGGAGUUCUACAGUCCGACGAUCCUAUAUUAGAGUGCCAGAAAAGGAGACCUCAGAAGUUAAGCAUAGGUUGCCAAUCUGCUACAAUUAUUUUUCCCACCAAUCUGCUCAAAAUGAUUGUAUAUAGUAUUCUUUGGAAUUCUCGGGUGCCAA` — result for “RBNS enrichment (R)”: 0.463.
`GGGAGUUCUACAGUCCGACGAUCCACACAUCAUUGCUGGGAGAAUUAAGCAUUAUCCUGAAGACUCUGCCAGGAGAGGAUAAUUGGAAGUUCUCUUGGACCUUACCUUAUGUGCCUUUCUUCAUUGCUGAUUUUGGAAUUCUCGGGUGCCAA`: “RBNS enrichment (R)” 0.309.

Series 2
Target: Fragile X messenger ribonucleoprotein 1, C-terminal low-complexity region (Fmr1, Mus musculus, UniProt P35922)
Method: RNA Bind-n-Seq
Form: RNA
Medium: in vitro
Concentration: 200 nM
Notes: whole 134-nt RNA, ends assumed
Added: 150 mM LiCl
Reference: input library
Direction: higher = stronger binding
Each molecule: 7-deaza-guanosine replaces G
`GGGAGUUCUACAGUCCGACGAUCCACAGACAACACGCACCCACACAGACACAGAGGGAAGGGGUUGGGAUAAAGACAGGGUGCACAGCAGGGCGGGGUAGGACCCCAGCCCCUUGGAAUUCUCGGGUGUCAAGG` has a log2 enrichment of 0.36.
With `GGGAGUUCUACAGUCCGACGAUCGCAGGAAGUAAAAACAAAUGGAAAUGCUUCGGAUAGUGGCAGGGGUGGAAAUUGCUAAGGAAAGGGUGGGAUGGGAGUGGGUAAAGAGUUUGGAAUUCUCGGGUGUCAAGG` the log2 enrichment was 1.42.
For `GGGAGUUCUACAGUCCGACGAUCGAGUCCGGUUCGUGUUCGUCCGCGGAGAUCUCUCUCAUCUCGCUCGGCUGCGGGAAAUCGGGCUGAAGCGACUGAGUCCGCGAUGGAGGUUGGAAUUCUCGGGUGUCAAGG`, the log2 enrichment was -2.07.
`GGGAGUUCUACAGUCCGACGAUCUGGAAGGAACGAGCCAGGAAGAGGGACUGGAACCAUCUCAGAAGCCAUGCCCCUCAGGCUGGAACUUGCCCUGUCUCCUCGCAGAUGAGGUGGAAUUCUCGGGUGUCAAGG` gave a log2 enrichment of -1.12.
`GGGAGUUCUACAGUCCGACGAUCCUGUGCUACACAUCGUAUGUACCGAAUCGGGGAAAAAAAGGAAAAAAAGGGGAAAAAAAGGGAAAGUAUUAUGUUACGCCGUUCGGAUCUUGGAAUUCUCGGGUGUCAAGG` has a log2 enrichment of 0.444.
`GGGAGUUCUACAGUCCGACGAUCUCCUGUGCUACACAUCGUAUGUACCGAAUCAAAUUUAAACCCCCCCAAAUUUUUUUAAAAAAGUAUUAUGUUACGCCGUUCGGAUCUGCAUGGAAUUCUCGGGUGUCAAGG` has a log2 enrichment of 2.15.
`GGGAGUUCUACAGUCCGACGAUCCCUCAAGUCCUGUGCUACACAUCGUAUGUACCGAAUCGGGUGGGUGGGUGGGAAAGUAUUAUGUUACGCCGUUCGGAUCUGCACUUCCAGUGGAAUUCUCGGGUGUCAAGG` gave a log2 enrichment of -0.0517.
The log2 enrichment of `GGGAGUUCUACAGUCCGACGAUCCCUGUGCUACACAUCGUAUGUACCGAAUCGGGGAAAAAAAGGGGAGGGGAAAAAAAGGGGAAAGUAUUAUGUUACGCCGUUCGGAUCUGCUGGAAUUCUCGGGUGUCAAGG` is reported as 1.21.
`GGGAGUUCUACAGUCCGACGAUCAGUCCUGUGCUACACAUCGUAUGUACCGAAUCGGUUUUUUUGGUUUUUUUGGAAAGGAAAGUAUUAUGUUACGCCGUUCGGAUCUGCACUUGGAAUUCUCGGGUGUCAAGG` has a log2 enrichment of -2.02.
With `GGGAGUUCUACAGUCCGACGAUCCCUCAAGUCCUGUGCUACACAUCGUAUGUACCGAAUCGGGGCGGGCGGGGCGGAAAGUAUUAUGUUACGCCGUUCGGAUCUGCACUUCCAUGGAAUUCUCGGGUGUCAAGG` the log2 enrichment was -1.19.
With `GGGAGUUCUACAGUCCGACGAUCCUCAAGUCCUGUGCUACACAUCGUAUGUACCGAAUCGGGCGGGGCGGGCGGGGAAAGUAUUAUGUUACGCCGUUCGGAUCUGCACUUCCAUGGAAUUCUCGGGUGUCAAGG` the log2 enrichment was -0.0526.

Series 3
Target: Interferon regulatory factor 3, full length, phosphomimetic (IRF3, Homo sapiens, UniProt Q14653, residues 1-427, S386D/S396D/S398D/S402D/T404D/S405D)
Method: protein-binding microarray
Form: double-stranded DNA, one strand shown
Medium: in vitro
Concentration: 2540 nM top
Notes: 60-bp whole probe
Added: salmon DNA 0.4 mg/ml
Reference: random background probes
Direction: higher = stronger binding
Constant ends, left off below: GCCTAGCAC … GTCTTGATTCGCTTGACGCTGCTG
Target sequence (chain): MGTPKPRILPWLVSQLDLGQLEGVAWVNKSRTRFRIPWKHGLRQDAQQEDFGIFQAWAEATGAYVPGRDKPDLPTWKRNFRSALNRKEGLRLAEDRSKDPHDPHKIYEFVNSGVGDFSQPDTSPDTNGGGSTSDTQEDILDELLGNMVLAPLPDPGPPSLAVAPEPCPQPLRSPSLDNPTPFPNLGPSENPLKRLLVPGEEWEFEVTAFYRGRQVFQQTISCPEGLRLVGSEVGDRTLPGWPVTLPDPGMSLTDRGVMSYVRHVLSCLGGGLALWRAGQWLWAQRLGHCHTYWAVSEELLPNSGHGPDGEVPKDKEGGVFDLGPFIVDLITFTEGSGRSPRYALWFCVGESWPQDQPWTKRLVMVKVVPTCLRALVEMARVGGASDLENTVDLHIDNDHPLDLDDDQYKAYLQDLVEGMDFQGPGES
`GACGATTTCATTTTCGAGACGTGCTAG`: “fitted relative affinity” 3.71 z-score.
Under “fitted relative affinity”, `TTAGATCTCAGACTGGATGAGTGCTAG` is recorded as 0.0271 z-score.
`GTCGAACTGAGTCTCGAGACGTGCTAG`: “fitted relative affinity” 0.168 z-score.
For `TTAGGGTTCGGGACTGGGTTAGTGCTA`, “fitted relative affinity” read -0.371 z-score.
For `ATGGAAATCTCAATGGGTTAGTGCTAG`, “fitted relative affinity” read -0.434 z-score.
`GACGGTATCGACTTTGGGGACGTGCTA`: “fitted relative affinity” 0.767 z-score.
`TTAGATTTCCGTCTCGATTAGTGCTAG`: “fitted relative affinity” 3.63 z-score.
For `TCACTTTTCCCCCTAGTACTGTGCTAG`, “fitted relative affinity” read 2.03 z-score.
`TTAGGTTACCTTCTCCTTTAGTGCTAG`: “fitted relative affinity” 6.73 z-score.
`TTAGGACTGGGACTGTGTTAGTGCTAG` — result for “fitted relative affinity”: -0.922 z-score.
Under “fitted relative affinity”, `GACGGTATCGGGTTTCGGTACGTGCTA` is recorded as 4.09 z-score.
Under “fitted relative affinity”, `TTAGGTCTCCGACTGCTTTAGTGCTAG` is recorded as 0.43 z-score.
For `TCAGAAATTTCTTTCTAACTGTGCTAG`, “fitted relative affinity” read 0.987 z-score.
`TCAGTTTCTCCTTTCCAACTGTGCTAG` — result for “fitted relative affinity”: 4.46 z-score.
`GACGCTATCAGTCTCGAGACGTGCTAG`: “fitted relative affinity” 1.05 z-score.
`TTAGGTAGCGGGTATCGGTTAGTGCTA`: “fitted relative affinity” 0.404 z-score.
`GACGATTTCCGGTATCGAGACGTGCTA` — result for “fitted relative affinity”: 1.97 z-score.

Series 4
Target: PABPC1L2, full length, GST fusion (mouse, UniProt A0ABA7IW68)
Method: RNAcompete
Form: RNA
Medium: in vitro
Concentration: 20 nM
Notes: 7-mer, probes averaged, single round
Reference: mean of 7-mers
Direction: higher = stronger binding
Construct (chain): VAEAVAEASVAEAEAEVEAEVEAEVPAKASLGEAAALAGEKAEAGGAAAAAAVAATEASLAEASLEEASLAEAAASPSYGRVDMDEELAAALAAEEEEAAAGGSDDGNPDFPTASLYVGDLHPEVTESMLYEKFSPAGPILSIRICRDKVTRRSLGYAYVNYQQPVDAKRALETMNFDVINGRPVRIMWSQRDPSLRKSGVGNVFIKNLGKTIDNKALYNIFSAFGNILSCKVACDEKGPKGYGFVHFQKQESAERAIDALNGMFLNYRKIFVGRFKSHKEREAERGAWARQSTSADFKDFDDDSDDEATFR
`GCCGCCU` has a 7-mer Z-score of -0.371.
`UCUUCUC` has a 7-mer Z-score of -0.414.
`AUUAUAU` has a 7-mer Z-score of -0.0174.
`UAAAGUG` has a 7-mer Z-score of 1.21.
For `UCCAGAG`, the 7-mer Z-score was -0.257.
`UUGGAUA` has a 7-mer Z-score of 0.133.
`UAUGCAC` has a 7-mer Z-score of -0.179.
For `ACUGCCU`, the 7-mer Z-score was -0.34.
`CUACUGG` has a 7-mer Z-score of -0.258.
With `GUUUCAG` the 7-mer Z-score was -0.315.
The 7-mer Z-score of `GUAGUCA` is reported as -0.133.
`CAACCGG` gave a 7-mer Z-score of -0.0736.
With `UACCUAG` the 7-mer Z-score was -0.179.
For `CGAUUAG`, the 7-mer Z-score was -0.238.
The 7-mer Z-score of `CUACAGA` is reported as -0.0881.
The 7-mer Z-score of `UCCAAUA` is reported as -0.0518.
The 7-mer Z-score of `GGGAAUA` is reported as 0.327.
With `AGCUCAU` the 7-mer Z-score was -0.103.
The 7-mer Z-score of `UCUGCGA` is reported as -0.132.
With `UUUCUCU` the 7-mer Z-score was -0.38.
`CGACCCA` has a 7-mer Z-score of -0.05.
`CCCCAUG` gave a 7-mer Z-score of -0.358.

Some of these lines once more (series 3):
Under “fitted relative affinity”, `TTAGGTCTCCGACTGCTTTAGTGCTAG` is recorded as 0.43 z-score.
`GACGCTATCAGTCTCGAGACGTGCTAG`: “fitted relative affinity” 1.05 z-score.
`GTCGAACTGAGTCTCGAGACGTGCTAG`: “fitted relative affinity” 0.168 z-score.
For `ATGGAAATCTCAATGGGTTAGTGCTAG`, “fitted relative affinity” read -0.434 z-score.
`TTAGGTAGCGGGTATCGGTTAGTGCTA`: “fitted relative affinity” 0.404 z-score.
`TTAGGTTACCTTCTCCTTTAGTGCTAG`: “fitted relative affinity” 6.73 z-score.
Under “fitted relative affinity”, `TTAGATCTCAGACTGGATGAGTGCTAG` is recorded as 0.0271 z-score.
`TTAGGACTGGGACTGTGTTAGTGCTAG` — result for “fitted relative affinity”: -0.922 z-score.
For `TCAGAAATTTCTTTCTAACTGTGCTAG`, “fitted relative affinity” read 0.987 z-score.
